Results collected from several papers.
Protocols differ between the studies behind these lines. Values joined by “and” are separate records of one study, mostly repeats; a detail may differ. ± gives the spread as reported.
RHO apoprotein (opsin): Rhodopsin, apoprotein (opsin) (RHO, Bos taurus, UniProt P02699)
BPTF bromodomain: Nucleosome-remodeling factor subunit BPTF, bromodomain (BPTF, Homo sapiens, UniProt Q12830)

`COc1cccc(C(=O)Nc2cccc(-c3cn(Cc4ccccc4)nn3)c2)c1` gave a Kd of 0.182 µM (Cystathionine gamma-synthase 1, chloroplastic (CGS1, Arabidopsis thaliana, UniProt P55217); binding, microscale thermophoresis).
For `CC[C@H](C)[C@H](NC(=O)[C@H](CCCCN)NC(=O)[C@H](CCCCN)NC(=O)[C@@H](NC(=O)[C@H](CCC(=O)O)NC(=O)[C@H](CCC(=O)O)NC(=O)[C@H](CCC(=O)O)NC(=O)[C@H](CO)NC(=O)[C@H](CC(C)C)NC(=O)[C@H](CC(=O)O)NC(=O)[C@H](CC(C)C)NC(=O)CNC(=O)[C@H](CCCNC(=N)N)NC(=O)[C@H](CC(C)C)NC(=O)[C@H](CO)NC(=O)CNC(=O)CNC(=O)CNC(=O)CCCC[C@@H]1SC[C@@H]2NC(=O)N[C@@H]21)C(C)C)C(=O)N[C@@H](CC(C)C)C(=O)N[C@@H](CC(=O)O)C(=O)N[C@@H](CCC(=O)O)C(=O)N[C@H](C(=O)N[C@H](C(=O)N[C@@H](C)C(=O)N[C@@H](CC(=O)O)C(=O)O)C(C)C)[C@@H](C)CC`, the Kd was 2 ± 0.14 µM (Fab B11 antibody (human); binding, biolayer interferometry; added: biotinylated peptide on tips).
The Kd of `CC1=C(/C=C/C=C\C=C\C(C)=C\C=O)C(C)(C)CCC1` is reported as 0.0091 µM (RHO apoprotein (opsin); Trp fluorescence quenching; opsin membranes; titration up to 1 µM).
`O=C(Cc1cccc(C(F)(F)F)c1)Nc1cc(Oc2c(Cl)cc3nc(NC(=O)C4CC4)sc3c2Cl)ccc1F` has a Kd of over 5 µM (RIPK3 (Homo sapiens, UniProt Q9Y572); binding, competition with immobilised ligand).
`CNCC=C(C)C=CC=CC=CC1=C(C)CCCC1(C)C` has a Kd of 0.03 µM (RHO apoprotein (opsin); Trp fluorescence quenching; opsin membranes; titration up to 1 µM).
`CNC(=O)CCN(Cc1ccc(C(F)F)cc1)C(=O)c1cc2c(OC)ccc(-c3ccc(=O)n(C)c3)c2s1` gave a Kd of 0.32 µM (Bromodomain-containing protein 4, BD1 (BRD4, Homo sapiens, UniProt O60885); binding, competition with immobilised ligand).
The Kd of `CC(=O)NCCCC[C@H](NC(=O)CNC(=O)[C@H](CO)NC(=O)[C@H](CC(=O)O)NC(=O)[C@H](CCCCNC(C)=O)NC(=O)CNC(=O)[C@H](C)NC(=O)[C@H](CCCCN)NC(=O)CNC(=O)CNC(=O)[C@H](C)NC(=O)[C@@H](N)Cc1ccc(O)cc1)C(=O)N[C@@H](C)C(=O)N[C@@H](CCCCN)C(=O)N[C@@H](C)C(=O)N[C@@H](CCCCN)C(=O)N[C@@H](C)C(=O)N[C@H](C(=O)N[C@@H](CO)C(=O)N[C@@H](CCCNC(=N)N)C(N)=O)C(C)C` is reported as 780 µM (BPTF bromodomain; bromodomain binding, PrOF NMR titration; pH 7.4, 5-fluorotryptophan-labelled bromodomain, 40-50 µM).
The Kd of `CCCC[C@@H]1NC(=O)[C@H](Cc2ccc(O)cc2)NC(=O)[C@@H]2CCCN2C(=O)[C@H](CC(=O)O)NC(=O)[C@H](C)NC(=O)[C@H](Cc2ccccc2)NC(=O)[C@@H]2CSCCC(=O)N3CN(CN(C3)C(=O)CCSC[C@@H](C(=O)N[C@@H](C)C(N)=O)NC1=O)C(=O)CCSC[C@H](NC(=O)[C@H](C)NC(C)=O)C(=O)N[C@@H](CC(C)(C)C)C(=O)N1CCC[C@H]1C(=O)N[C@@H](CCC(=O)O)C(=O)N[C@H](C)C(=O)N1CCC[C@H]1C(=O)N[C@@H](Cc1ccc(O)cc1)C(=O)N2` is reported as 0.004 µM (Tumor necrosis factor receptor superfamily member 9 (Homo sapiens, UniProt Q07011); binding, SPR).
With `OC[C@H]1Oc2c(I)c(I)cc3c2[C@@H](OC3)[C@H]1O` the Kd was 890 µM (Galectin-1 (LGALS1, Homo sapiens, UniProt P09382); ligand displacement, FP).
With `COc1cc(CNC(=O)C[C@H](C)CCC=C(C)C)ccc1OCc1cn(-c2ccc(C#N)cc2)nn1` the growth percent was 88.6% (HOP-62; SRB; 10 µM, 48 h).
With `OC[C@H]1Oc2cc(I)cc3c2[C@@H](OC3)[C@H]1O` the Kd was over 2000 µM (Galectin-9, N-terminal CRD (LGALS9, Homo sapiens, UniProt O00182); binding, competitive fluorescence polarization; 20 °C, galectin-9 N-terminal domain 1.0 µM).
For `CC(=O)NCCCC[C@H](NC(=O)[C@H](CCCCN)NC(=O)[C@H](Cc1c[nH]cn1)NC(=O)[C@H](CCCNC(=N)N)NC(C)=O)C(=O)Nc1ccc2c(C)cc(=O)oc2c1`, the Kd was 19.5 µM (SIRT1 (Homo sapiens, UniProt Q96EB6, C253S/C268S/C501S/C502S/del513-640/E230K); peptide binding, isothermal titration calorimetry; 10% glycerol; pH 7.5, 25 °C, E230K mutant, added: resveratrol 0.5 mM).
`Cc1cc(N2CC[C@@](C#N)(C3CC3)C2=O)cc(NC(=O)Cc2ccccc2)n1` has a Kd of 0.243 µM and 0.313 µM (Proline--tRNA ligase (Plasmodium falciparum, UniProt Q8I5R7); binding, microscale thermophoresis).
For `CC(=O)NCCCC[C@H](NC(=O)CNC(=O)[C@H](CO)NC(=O)[C@H](CC(=O)O)NC(=O)[C@H](CCCCN)NC(=O)CNC(=O)[C@H](C)NC(=O)[C@H](CCCCN)NC(=O)CNC(=O)CNC(=O)[C@H](C)NC(=O)[C@@H](N)Cc1ccc(O)cc1)C(=O)N[C@@H](C)C(=O)N[C@@H](CCCCNC(C)=O)C(=O)N[C@@H](C)C(=O)N[C@@H](CCCCN)C(=O)N[C@@H](C)C(=O)N[C@H](C(=O)N[C@@H](CO)C(=O)N[C@@H](CCCNC(=N)N)C(N)=O)C(C)C`, the Kd was 790 µM (BPTF bromodomain; bromodomain binding, PrOF NMR titration; pH 7.4, 5-fluorotryptophan-labelled bromodomain, 40-50 µM).
For `COc1cc(CNC(=O)C[C@H](C)CCC=C(C)C)ccc1OCc1cn(-c2ccccc2[N+](=O)[O-])nn1`, the growth percent was 106% (HCC 2998; SRB; 10 µM, 48 h).
`O=C(O)CCc1ccc(O)cc1` gave a Kd of 174 ± 6.5 µM (p-hydroxyphenylacetate 3-hydroxylase, reductase component (C1-hpah, Acinetobacter baumannii, UniProt Q6Q271); ITC; pH 7, added: 1 mM FMN).

For quick reference, copied from above:
With `OC[C@H]1Oc2c(I)c(I)cc3c2[C@@H](OC3)[C@H]1O` the Kd was 890 µM (Galectin-1 (LGALS1, Homo sapiens, UniProt P09382); ligand displacement, FP).
With `COc1cc(CNC(=O)C[C@H](C)CCC=C(C)C)ccc1OCc1cn(-c2ccc(C#N)cc2)nn1` the growth percent was 88.6% (HOP-62; SRB; 10 µM, 48 h).
